Measured values from different studies.
Protocols differ between the studies behind these lines. “And” joins repeats or separate records; there may be more than shown. Numbers after ± are the reported error. Values after ≈ are worked out from the molar mass of the structure shown.

Molecule | test | test system | conditions | how to read | quantity | result
CCCCCCOC(=O)NC(=N)c1ccc(NCc2nc3cc(C(=O)N(CCC(=O)OCC)c4ccccn4)ccc3n2C)cc1 | – | healthy human | oral, 600 mg single dose, 1.5 to 3 h | baseline: baseline, time-matched | change in QTcI | -5 ms
Cc1nc2cccc(OCC(C)(C)C(=O)NC(C)C)c2c(N)c1C(=O)O | – | Sprague-Dawley rat Crl:CD(SD), both sexes, plasma | oral, food admix, 100 mg/kg/day, day 7 | – | Cmax | 317 nM
O=C(O)[C@H](c1ccccc1Cl)N1CCc2sccc2C1 | HPLC-MS/MS | feline EDTA plasma | 12 h, 4 °C, storage stability | – | deviation from nominal | 11%
CC(C)C[C@H](NC(=O)CNC(=O)c1cc(Cl)ccc1Cl)B(O)O | rapid equilibrium dialysis | moderate hepatic impairment patients, plasma | 3 h | – | unbound fraction | 0.0093 ± 0.0037
CC(C)NC[C@@H](C(=O)N1CCN(c2ncnc3c2[C@H](C)C[C@H]3O)CC1)c1ccc(Cl)cc1 | – | human, hepatic impairment Healthy (Child-Pugh), plasma | oral, 100 mg single, geometric mean | – | AUC(0-72) | 253 ng·h/mL
CC(C)=CCC[C@](C)(O[C@@H]1O[C@H](CO[C@@H]2O[C@H](CO)[C@@H](O)[C@H](O)[C@H]2O)[C@@H](O)[C@H](O)[C@H]1O)[C@H]1CC[C@]2(C)[C@@H]1[C@H](O)C[C@@H]1[C@@]3(C)CC[C@H](O[C@@H]4O[C@H](CO)[C@@H](O)[C@H](O)[C@H]4O[C@@H]4O[C@H](CO)[C@@H](O)[C@H](O)[C@H]4O)C(C)(C)[C@@H]3CC[C@]12C | – | rat, extracted plasma QC samples | 2.0 µg/mL, 24 h, 15 °C, autosampler | – | post-preparative stability accuracy | 94.4 ± 4%
Cc1cccc(C)c1OCC(=O)N[C@@H](Cc1ccccc1)[C@@H](O)C[C@H](Cc1ccccc1)NC(=O)[C@H](C(C)C)N1CCCNC1=O | modified PAMPA Franz cell | phosphate buffer with HPMCAS | stock 20 mg/mL, 3 h, 25 °C, 839 nm system, 300 rpm, added: 3% BSA receiver | – | free drug permeability | 19.6 ± 0.1 ×10⁻⁶ cm/s
CCCC[C@@H]1NC(=O)[C@@H](NC(=O)[C@H](CCC(=O)O)NC(=O)CNC(=O)CN2CCN(CC(=O)O)CCN(CC(=O)O)CCN(CC(=O)O)CC2)CCCCNC(=O)C[C@@H](C(N)=O)NC(=O)[C@H](C(C)C)NC(=O)[C@@H]2CCCN2C(=O)[C@H](CCCNC(=N)N)NC(=O)CNC(=O)[C@H](Cc2c[nH]c3ccccc23)NC(=O)[C@H](CCCNC(=N)N)NC(=O)[C@@H](Cc2ccccc2)NC(=O)[C@H](Cc2c[nH]cn2)NC(=O)[C@H](CCC(=O)O)NC1=O [indium-111 labelled] | refers to: liver | C57 mice | intravenous, 0.037 MBq, 2 h | – | lung to tissue ratio | 0.2
CC(C)=CCC[C@](C)(O[C@@H]1O[C@H](CO)[C@@H](O)[C@H](O)[C@H]1O)[C@H]1CC[C@]2(C)[C@@H]1[C@H](O)C[C@@H]1[C@@]3(C)CC[C@H](O)C(C)(C)[C@@H]3[C@@H](O[C@@H]3O[C@H](CO)[C@@H](O)[C@H](O)[C@H]3O[C@@H]3O[C@@H](C)[C@H](O)[C@@H](O)[C@H]3O)C[C@]12C | – | rat, extracted tissue homogenate QC samples | 0.2 µg/mL, 24 h, 15 °C, autosampler | – | post-preparative stability accuracy | 92.9 ± 3.5%
O=C(O)c1cccc(CN2CN(C3CCCCC3)C3(CCN(CCCC(=O)c4ccccc4)CC3)C2=O)c1 | – | human healthy adults, plasma | dose not given, 24 h | – | subjects below LLOQ | 50%
Nc1ccn([C@@H]2O[C@H](CO)[C@@H](O)C2(F)F)c(=O)n1 | – | THU-treated rat plasma | 12.00 ng/mL, 1 h, 20 °C, bench-top stability, low QC | – | measured concentration | 10.3 ± 1 ng/mL
CO[C@H]1C[C@@H]2CC[C@@H](C)[C@@](O)(O2)C(=O)C(=O)N2CCCC[C@H]2C(=O)O[C@H]([C@H](C)C[C@@H]2CC[C@@H](OP(C)(C)=O)[C@H](OC)C2)CC(=O)[C@H](C)/C=C(\C)[C@@H](O)[C@@H](OC)C(=O)[C@H](C)C[C@H](C)/C=C/C=C/C=C/1C | ELISA | human, serum | dose not given | – | dalotuzumab trough serum concentration | no effect
CC(C)C[C@H](NC(=O)[C@H](CC(C)C)NC(=O)[C@@H](Cc1c[nH]c2ccccc12)NC(=O)[C@@H](NC(=O)[C@@H](Cc1c[nH]c2ccccc12)NC(=O)[C@@H](N)CCCCN)[C@@H](c1ccccc1)c1c[nH]c2ccccc12)C(N)=O | RP-HPLC Jupiter Proteo | – | acetonitrile/water TFA gradient | – | HPLC retention | 58.7 %B
CCN(CC)CCNC(=O)c1c(C)[nH]c(/C=C2\C(=O)Nc3ccc(F)cc32)c1C | – | human, plasma | oral, 20 mg/m2, day 28 | – | minimum trough plasma concentration | 23.4 ng/mL
CCn1c2ccccc2c2cc(-n3nncc3-c3ccccc3)ccc21 | – | SCID mice, female, MDA-MB-468 mammary fat pad tumour | intraperitoneal, 10 mg/kg single dose, 30 min | – | concentration | 235 ng/g
COc1cc(OC)c(/C=C/S(=O)(=O)Cc2ccc(OC)c(NCC(=O)O)c2)c(OC)c1 | – | cancer patients, phase I, plasma | oral, 560 mg twice daily, day 21 cycle 1 | – | Vss/F | 574 ± 498 L
O=c1cc[nH]c(=O)[nH]1 | UHPLC-MS | male CD-1 mice, plasma | intravenous, 1 mg/kg, from 4 h postdose | – | terminal half-life | 10 h
COc1cc2c(cc1OC)[C@@H]1Cc3ccc(OC)c(OC)c3CN1CC2 | – | rat plasma QC sample | 3200 ng/mL nominal, 24 h, 23 °C, high QC level storage stability | – | measured concentration | 3180 ± 51.4 ng/mL
C[C@]12CC[C@@H]3c4ccc(O)cc4CC[C@H]3[C@@H]1C[C@@H](O)[C@@H]2O | GC-MS | breast cancer women on NSAI, serum | vaginal, 0.03 mg daily, 2 h, day 28 | – | median serum concentration | 0 ng/mL
CN1CC[C@@H](NC(=O)Nc2ccc(C#N)cc2)C[C@@H]1c1nc2ccccc2[nH]1 | – | normal hepatic function, plasma | oral, 100 mg single dose, fasted, arithmetic mean | – | AUC(0-t), unbound | 879 ± 301 ng·h/mL
CC[C@H](C)[C@@H]1NC(=O)[C@H](Cc2ccc(O)cc2)NC(=O)[C@@H](N)CSSC[C@@H](C(=O)N2CCC[C@H]2C(=O)N[C@@H](CC(C)C)C(=O)NCC(N)=O)NC(=O)[C@H](CC(N)=O)NC(=O)[C@H](CCC(N)=O)NC1=O | microdialysis, radioimmunoassay | C57BL/6J male mice, wild type, amygdala extracellular fluid | intraperitoneal, 12 µg total, incremental area over baseline | – | AUC above baseline | 37.9 ± 12.1 pg·30 min/sample
OC[C@H]1O[C@@H](c2ccc(F)c(Cc3cc4ccccc4s3)c2)[C@H](O)[C@@H](O)[C@@H]1O | – | Wistar rat, male, kidney | oral, dose not given, 8 h | baseline: kidney over plasma concentration | tissue/plasma ratio | 1090 ± 456

Molecule | test | test system | conditions | how to read | quantity | result
COc1ccc(-c2oc3c(OC)c(OC)cc(O)c3c(=O)c2OC)cc1OC | – | C57BL/6 mouse, male, small intestine | oral, 1% w/w in diet, 6 weeks, orange peel extract diet | baseline: content in orange peel | tissue to peel content ratio | 25%
CN[C@H](CC(C)C)C(=O)N[C@H]1C(=O)N[C@@H](CC(N)=O)C(=O)N[C@H]2C(=O)N[C@H]3C(=O)N[C@H](C(=O)N[C@H](C(=O)O)c4cc(O)cc(O)c4-c4cc3ccc4O)[C@H](O)c3ccc(c(Cl)c3)Oc3cc2cc(c3O[C@@H]2O[C@H](CO)[C@@H](O)[C@H](O)[C@H]2O[C@H]2C[C@](C)(N)[C@H](O)[C@H](C)O2)Oc2ccc(cc2Cl)[C@H]1O | microdialysis | pig, Danish Landrace, subcutaneous adipose tissue | intravenous, 1000 mg over 100 min, 450 min dosing interval, added: 2.0 µg/mL MIC | baseline: dosing interval | time above MIC | 96%
CCCSc1nc(N[C@@H]2C[C@H]2c2ccc(F)c(F)c2)c2nnn([C@@H]3C[C@H](OCCO)[C@@H](O)[C@H]3O)c2n1 | – | Wistar Han rat, female, plasma | oral, 60 mg/kg/day, day 1, carcinogenicity study | – | AUC | 191 µM·h
colistin methanesulfonate | one-compartment PK model | rat | i.p., 20 mg/kg colistin base activity | – | total body clearance | 2.52 ± 1.64 mL/min/kg
COc1cc2nccc(Oc3ccc(NC(=O)C4(C(=O)Nc5ccc(F)cc5)CC4)cc3)c2cc1OC | – | male Sprague-Dawley rat, hypoxic pulmonary hypertension | subcutaneous, 20 mg/kg, 14 days post-hypoxia, 3 weeks hypoxia | – | right ventricular systolic pressure | 36.8 ± 2.3 mmHg
CCCC[C@H](NC(C)=O)C(=O)N[C@H]1CCC(=O)NC[C@@H](C(=O)N[C@@H](Cc2c[nH]c3ccccc23)C(N)=O)NC(=O)[C@H](CCCNC(=N)N)NC(=O)[C@@H](Cc2ccccc2)NC(=O)[C@H](Cc2c[nH]cn2)NC1=O | – | female rat, plasma | subcutaneous, 5 mg/kg/day, multiple doses, once daily | – | AUC(0-inf) | 4300 ng·h/mL
COc1ccc(-c2cc(=O)c3cc(OC)c(OC)c(OC)c3o2)cc1OC | – | C57BL/6 mouse, male, feces | oral, 1% w/w in diet, 6 weeks, orange peel extract diet | baseline: content in orange peel | tissue to peel content ratio | 65.9%
FC(F)(F)c1cccc(Nc2ncnc3ccccc23)c1 | potentiometric titration | 1-octanol/water, 0.15 M KCl | ionic species, initial protocol | – | logP | 1.38
Cn1c(-c2ccc(C(N)=O)cc2F)nnc1C(C)(C)Oc1c(F)cc(Cl)cc1F | – | young Japanese subjects, plasma | oral, 50 mg single dose, day 1 | – | AUC(0-inf) median | 8010 ng·h/mL
O=C1CN(/N=C/c2ccc(-c3ccc([N+](=O)[O-])cc3)o2)C(O)=N1 | – | Sprague-Dawley rat, male, liver | oral, 100 mg/kg, 6 h, single low dose | direction not given | hepatocyte necrosis score | 0
Cc1cc(Oc2cnc(C)nc2)cc(C(=O)Nc2ccc(F)cn2)n1 | – | Sprague-Dawley rat, male, plasma | oral, 10 mg/kg, 1 h | – | unbound plasma concentration | 390 nM
Cc1[nH]c(=O)c(CNC(=O)c2ccno2)c2c1CCCC2 | U-HPLC | 20% DMSO in water | – | – | kinetic solubility | 280 µg/mL
CCn1cc(-c2nc(C)no2)c(=O)c2cc(F)c(N3CCC(C)CC3)cc21 | – | FaSSIF | 2 h, pH 6.5, 25 °C | – | kinetic solubility | 1.5 µM
CC1=C2C[C@H]3[C@@H](CC[C@@H]4C[C@H](NS(C)(=O)=O)CC[C@@]43C)[C@@H]2CC[C@@]2(C1)O[C@@H]1C[C@H](C)CN[C@H]1[C@H]2C | – | patients, plasma | oral, 20 mg single, day -7, cycle 1 | – | AUC(0-24) | 58.5 ng·h/mL
CC(=O)O[C@H]1C(=O)[C@@]2(C)[C@H]([C@H](OC(=O)c3ccccc3)[C@]3(O)C[C@H](OC(=O)[C@H](O)[C@@H](NC(=O)c4ccccc4)c4ccccc4)C(C)=C1C3(C)C)[C@]1(OC(C)=O)CO[C@@H]1C[C@@H]2O | noncompartmental analysis | human, plasma | intravenous, 80 mg/m^2, day 8, DL2 geometric mean, added: onalespib 150 mg/m^2 | – | volume of distribution (Vz) | 226 ± 71.9 L/m²
C[C@H]1Oc2cc(cnc2N)-c2c(nn(C)c2C#N)CN(C)C(=O)c2ccc(F)cc21 | – | human (NSCLC and healthy) | oral, PopPK, steady state | – | maximum induced clearance | 242 mL/min
COc1cccc(-c2ccc(NC(=O)C3=C(C(=O)O)CCC3)c(F)c2)c1 | – | male healthy human, plasma | oral, 50 mg daily, day 13-14, not pre-dosed | baseline: day 0-1 | AUC(0-24) accumulation ratio | 2.49
Cc1cc(Nc2ncc(Cl)c(Nc3ccccc3S(=O)(=O)C(C)C)n2)c(OC(C)C)cc1C1CCNCC1 | – | human, plasma | oral, 450 mg/day with food, steady state after dose 9 | – | Tss,max total | 6 h and 7.9 h and 4.4 h and 8 h and 6.2 h and 4 h
CCCCCCCC/C=C\CCCCCCCC(=O)O[C@H](COC(=O)CCCCCCCCCCCCCCC)COP(=O)([O-])OCC[N+](C)(C)C | dynamic light scattering | lipid vesicles | 1.0 mg/mL, 25 °C, 1:1 wt/wt, 24 h at 37 °C | – | particle size | 10.4 nm
C[C@](N)(Cc1ccc(O)c(O)c1)C(=O)O | – | supercritical carbon dioxide | 5 h, 343 K, 21 MPa, density 678.9 kg/m3 | – | solubility | 244 µg/mL (≈ 1150 µM)
CC[C@H](C)[C@H](NC(C)=O)C(=O)N[C@@]1(C)CCCC=CCCC[C@@](C)(C(=O)N[C@@H](CC(C)C)C(=O)N[C@@H](CCCCN)C(=O)N[C@H](C(N)=O)[C@@H](C)O)NC(=O)[C@H](CC(N)=O)NC(=O)[C@H]([C@@H](C)O)NC(=O)[C@H](CC(C)C)NC1=O | circular dichroism | PBS with 50% trifluoroethanol | 0.3 mg/mL, pH 7.4, 25 °C | – | α-helicity | 22.1%
O=C(O)[C@H]1/C(=C/CO)O[C@@H]2CC(=O)N21 | – | rat plasma | 2400 ng/mL, three freeze-thaw cycles | – | measured concentration | 2410 ± 92 ng/mL

A few entries again:
Molecule | test | test system | conditions | how to read | quantity | result
CCn1cc(-c2nc(C)no2)c(=O)c2cc(F)c(N3CCC(C)CC3)cc21 | – | FaSSIF | 2 h, pH 6.5, 25 °C | – | kinetic solubility | 1.5 µM
CC1=C2C[C@H]3[C@@H](CC[C@@H]4C[C@H](NS(C)(=O)=O)CC[C@@]43C)[C@@H]2CC[C@@]2(C1)O[C@@H]1C[C@H](C)CN[C@H]1[C@H]2C | – | patients, plasma | oral, 20 mg single, day -7, cycle 1 | – | AUC(0-24) | 58.5 ng·h/mL
